Results from different studies.
Each numbered part is a random draw from the data of one study; scales do not carry over between parts.
UniProt Q96PF2, sequence (whole entry, looked up): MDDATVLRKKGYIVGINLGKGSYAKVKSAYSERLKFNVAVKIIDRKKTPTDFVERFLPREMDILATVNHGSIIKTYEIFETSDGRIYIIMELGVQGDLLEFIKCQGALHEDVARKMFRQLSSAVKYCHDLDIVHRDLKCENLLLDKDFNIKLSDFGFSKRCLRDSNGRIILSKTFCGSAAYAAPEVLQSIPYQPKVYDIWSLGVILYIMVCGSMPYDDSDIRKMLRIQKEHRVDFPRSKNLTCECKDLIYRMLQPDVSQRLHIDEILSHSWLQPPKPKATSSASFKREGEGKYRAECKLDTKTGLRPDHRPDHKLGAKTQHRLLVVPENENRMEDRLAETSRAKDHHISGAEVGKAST
UniProt Q00534, sequence (whole entry, looked up): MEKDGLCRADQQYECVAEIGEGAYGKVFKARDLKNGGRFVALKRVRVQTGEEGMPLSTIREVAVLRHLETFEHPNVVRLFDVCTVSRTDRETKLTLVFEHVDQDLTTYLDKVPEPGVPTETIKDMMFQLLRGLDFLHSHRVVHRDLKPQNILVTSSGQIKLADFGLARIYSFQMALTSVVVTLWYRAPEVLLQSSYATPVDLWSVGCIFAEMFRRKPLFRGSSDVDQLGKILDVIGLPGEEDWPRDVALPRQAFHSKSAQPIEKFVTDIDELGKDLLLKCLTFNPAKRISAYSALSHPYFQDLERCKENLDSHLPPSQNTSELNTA
UniProt O43781, sequence (whole entry, looked up): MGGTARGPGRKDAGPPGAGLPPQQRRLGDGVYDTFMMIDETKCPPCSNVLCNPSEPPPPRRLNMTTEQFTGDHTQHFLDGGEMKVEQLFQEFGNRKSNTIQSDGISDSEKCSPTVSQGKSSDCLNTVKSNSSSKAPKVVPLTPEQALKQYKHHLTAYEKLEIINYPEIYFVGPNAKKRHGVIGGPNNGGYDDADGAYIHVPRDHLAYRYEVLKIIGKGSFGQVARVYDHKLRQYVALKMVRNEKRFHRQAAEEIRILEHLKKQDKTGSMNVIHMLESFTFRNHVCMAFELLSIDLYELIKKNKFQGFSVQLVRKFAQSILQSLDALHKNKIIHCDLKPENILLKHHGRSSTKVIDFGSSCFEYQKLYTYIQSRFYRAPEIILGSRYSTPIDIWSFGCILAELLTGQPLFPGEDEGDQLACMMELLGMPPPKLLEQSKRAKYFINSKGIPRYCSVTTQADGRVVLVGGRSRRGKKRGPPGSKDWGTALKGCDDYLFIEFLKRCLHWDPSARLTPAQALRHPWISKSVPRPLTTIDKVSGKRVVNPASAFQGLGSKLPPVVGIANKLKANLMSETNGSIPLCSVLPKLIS
UniProt Q15349, sequence (whole entry, looked up): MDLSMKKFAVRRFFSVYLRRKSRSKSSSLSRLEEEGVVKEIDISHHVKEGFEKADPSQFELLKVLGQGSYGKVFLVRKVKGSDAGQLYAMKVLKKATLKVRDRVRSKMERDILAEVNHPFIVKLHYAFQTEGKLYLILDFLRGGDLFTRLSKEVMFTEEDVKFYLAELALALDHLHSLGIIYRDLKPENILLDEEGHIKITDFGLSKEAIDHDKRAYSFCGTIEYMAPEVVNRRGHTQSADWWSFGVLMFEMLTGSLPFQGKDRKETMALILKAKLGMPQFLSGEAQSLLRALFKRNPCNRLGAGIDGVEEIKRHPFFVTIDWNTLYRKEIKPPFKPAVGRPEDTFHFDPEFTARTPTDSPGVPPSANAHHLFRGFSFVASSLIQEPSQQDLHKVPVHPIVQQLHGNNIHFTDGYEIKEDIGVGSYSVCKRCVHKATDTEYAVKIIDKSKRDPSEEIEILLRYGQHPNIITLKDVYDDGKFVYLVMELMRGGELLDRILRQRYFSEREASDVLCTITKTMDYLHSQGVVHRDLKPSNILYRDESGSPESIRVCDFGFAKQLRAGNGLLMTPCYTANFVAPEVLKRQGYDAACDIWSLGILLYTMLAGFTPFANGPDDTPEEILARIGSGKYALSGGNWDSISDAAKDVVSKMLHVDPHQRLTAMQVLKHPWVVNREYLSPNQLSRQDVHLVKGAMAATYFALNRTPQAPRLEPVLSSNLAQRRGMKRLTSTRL
UniProt P54762, sequence (whole entry, looked up): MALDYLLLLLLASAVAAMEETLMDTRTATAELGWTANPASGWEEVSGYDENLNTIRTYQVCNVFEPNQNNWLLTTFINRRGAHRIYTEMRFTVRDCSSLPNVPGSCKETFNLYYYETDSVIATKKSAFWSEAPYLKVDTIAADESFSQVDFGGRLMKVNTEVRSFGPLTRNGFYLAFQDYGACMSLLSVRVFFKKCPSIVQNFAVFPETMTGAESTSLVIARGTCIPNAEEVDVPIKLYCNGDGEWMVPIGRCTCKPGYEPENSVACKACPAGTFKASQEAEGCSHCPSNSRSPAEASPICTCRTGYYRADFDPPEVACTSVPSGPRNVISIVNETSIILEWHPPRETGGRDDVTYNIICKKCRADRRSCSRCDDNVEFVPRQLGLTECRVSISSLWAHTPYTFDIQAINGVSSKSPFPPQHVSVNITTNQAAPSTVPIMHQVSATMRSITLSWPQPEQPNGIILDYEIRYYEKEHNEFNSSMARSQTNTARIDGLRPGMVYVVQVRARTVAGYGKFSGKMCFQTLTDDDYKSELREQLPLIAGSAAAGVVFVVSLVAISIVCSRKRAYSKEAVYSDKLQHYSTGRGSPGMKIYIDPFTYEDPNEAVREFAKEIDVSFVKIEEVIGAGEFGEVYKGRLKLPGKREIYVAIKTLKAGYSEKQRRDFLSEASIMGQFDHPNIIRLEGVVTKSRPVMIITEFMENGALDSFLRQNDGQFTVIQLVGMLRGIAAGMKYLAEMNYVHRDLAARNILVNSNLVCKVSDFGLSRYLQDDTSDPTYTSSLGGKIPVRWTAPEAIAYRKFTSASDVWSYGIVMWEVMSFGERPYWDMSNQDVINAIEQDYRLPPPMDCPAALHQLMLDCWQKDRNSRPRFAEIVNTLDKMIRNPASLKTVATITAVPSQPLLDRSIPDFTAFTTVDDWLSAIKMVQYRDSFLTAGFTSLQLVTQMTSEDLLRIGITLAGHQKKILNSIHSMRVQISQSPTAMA
UniProt Q16816, sequence (whole entry, looked up): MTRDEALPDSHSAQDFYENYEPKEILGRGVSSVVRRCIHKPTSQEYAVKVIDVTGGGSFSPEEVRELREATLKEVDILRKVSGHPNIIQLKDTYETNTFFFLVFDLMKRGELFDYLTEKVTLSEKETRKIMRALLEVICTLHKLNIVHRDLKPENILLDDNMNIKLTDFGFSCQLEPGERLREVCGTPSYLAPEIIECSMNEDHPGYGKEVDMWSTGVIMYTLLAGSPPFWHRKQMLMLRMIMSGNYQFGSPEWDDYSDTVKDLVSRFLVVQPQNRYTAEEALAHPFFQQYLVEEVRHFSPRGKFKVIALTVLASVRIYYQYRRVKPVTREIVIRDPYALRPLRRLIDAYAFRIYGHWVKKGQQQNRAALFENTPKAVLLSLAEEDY
UniProt P06493, sequence (whole entry, looked up): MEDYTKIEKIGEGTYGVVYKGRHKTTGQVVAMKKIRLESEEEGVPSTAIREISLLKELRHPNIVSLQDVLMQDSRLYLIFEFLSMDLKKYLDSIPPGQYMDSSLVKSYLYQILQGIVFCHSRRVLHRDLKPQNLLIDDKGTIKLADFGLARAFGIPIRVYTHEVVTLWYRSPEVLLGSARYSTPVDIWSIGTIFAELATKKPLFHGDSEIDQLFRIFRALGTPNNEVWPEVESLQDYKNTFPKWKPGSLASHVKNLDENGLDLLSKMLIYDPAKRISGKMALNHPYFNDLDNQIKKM
UniProt O94806, sequence (whole entry, looked up): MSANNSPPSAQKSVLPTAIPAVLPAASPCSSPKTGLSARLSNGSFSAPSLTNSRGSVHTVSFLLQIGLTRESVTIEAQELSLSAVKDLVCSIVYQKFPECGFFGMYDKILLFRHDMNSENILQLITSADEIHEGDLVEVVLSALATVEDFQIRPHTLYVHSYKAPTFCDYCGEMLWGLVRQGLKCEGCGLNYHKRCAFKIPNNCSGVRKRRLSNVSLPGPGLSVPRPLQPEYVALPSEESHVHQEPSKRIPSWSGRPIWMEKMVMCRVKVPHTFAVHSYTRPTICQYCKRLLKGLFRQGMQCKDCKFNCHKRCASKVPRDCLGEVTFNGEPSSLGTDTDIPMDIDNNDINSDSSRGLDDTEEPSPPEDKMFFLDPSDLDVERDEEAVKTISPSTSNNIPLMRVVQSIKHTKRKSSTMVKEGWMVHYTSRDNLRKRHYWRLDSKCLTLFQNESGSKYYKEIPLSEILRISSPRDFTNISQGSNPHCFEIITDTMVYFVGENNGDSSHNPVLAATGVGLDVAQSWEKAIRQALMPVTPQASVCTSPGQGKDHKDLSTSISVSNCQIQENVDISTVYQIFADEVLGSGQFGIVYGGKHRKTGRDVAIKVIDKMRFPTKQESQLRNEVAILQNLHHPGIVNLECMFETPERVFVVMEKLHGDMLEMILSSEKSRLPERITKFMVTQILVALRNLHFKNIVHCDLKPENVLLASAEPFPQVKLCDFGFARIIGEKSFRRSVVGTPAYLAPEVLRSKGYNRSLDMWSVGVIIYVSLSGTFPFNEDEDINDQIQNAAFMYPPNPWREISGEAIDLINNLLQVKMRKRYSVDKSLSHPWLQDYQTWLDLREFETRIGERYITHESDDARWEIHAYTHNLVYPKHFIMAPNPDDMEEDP
UniProt P49841, sequence (whole entry, looked up): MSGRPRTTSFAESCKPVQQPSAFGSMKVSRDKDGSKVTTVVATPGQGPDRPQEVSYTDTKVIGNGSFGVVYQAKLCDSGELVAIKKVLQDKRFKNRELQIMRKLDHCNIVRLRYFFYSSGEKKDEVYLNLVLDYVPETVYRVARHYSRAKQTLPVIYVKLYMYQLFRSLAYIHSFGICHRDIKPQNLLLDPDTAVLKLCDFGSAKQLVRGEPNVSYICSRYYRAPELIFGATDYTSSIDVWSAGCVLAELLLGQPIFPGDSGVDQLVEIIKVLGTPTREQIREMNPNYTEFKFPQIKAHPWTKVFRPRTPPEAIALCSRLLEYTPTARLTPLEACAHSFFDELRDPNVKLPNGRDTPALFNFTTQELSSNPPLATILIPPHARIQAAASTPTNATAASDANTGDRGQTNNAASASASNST

Block 1
SMILES: O=C(Nc1cnc(Oc2ccc(F)cc2)nc1)N1CCc2ncccc2[C@@H]1c1ccc(F)cc1
Concentration: 1 µM
Measurement: remaining binding
Mitogen-activated protein kinase kinase kinase 15 (MAP3K15, Homo sapiens, UniProt Q6ZN16); cell-free assay, competition with immobilised ligand: 100%
Hepatocyte growth factor receptor (MET, Homo sapiens, UniProt P08581, M1250T); cell-free assay, competition with immobilised ligand: 100%
Phosphatidylinositol 4,5-bisphosphate 3-kinase catalytic subunit alpha isoform (PIK3CA, Homo sapiens, UniProt P42336, Q546K); cell-free assay, competition with immobilised ligand: 95%
Casein kinase II subunit alpha' (CSNK2A2, Homo sapiens, UniProt P19784); cell-free assay, competition with immobilised ligand: 100%
Hepatocyte growth factor receptor (MET, Homo sapiens, UniProt P08581, Y1235D); cell-free assay, competition with immobilised ligand: 93%
Glycogen synthase kinase-3 beta (GSK3B, Homo sapiens, UniProt P49841); cell-free assay, competition with immobilised ligand: 100%
Receptor-type tyrosine-protein kinase FLT3 (FLT3, Homo sapiens, UniProt P36888, D835H); cell-free assay, competition with immobilised ligand: 100%
Casein kinase I isoform delta (CSNK1D, Homo sapiens, UniProt P48730); cell-free assay, competition with immobilised ligand: 100%
RAC-beta serine/threonine-protein kinase (AKT2, Homo sapiens, UniProt P31751); cell-free assay, competition with immobilised ligand: 100%
Serine/threonine-protein kinase Nek5 (NEK5, Homo sapiens, UniProt Q6P3R8); cell-free assay, competition with immobilised ligand: 90%
Ephrin type-A receptor 8 (EPHA8, Homo sapiens, UniProt P29322); cell-free assay, competition with immobilised ligand: 88%
Ribosomal protein S6 kinase alpha-2, N-terminal kinase domain (RPS6KA2, Homo sapiens, UniProt Q15349); cell-free assay, competition with immobilised ligand: 97%
Serine/threonine-protein kinase D3 (PRKD3, Homo sapiens, UniProt O94806); cell-free assay, competition with immobilised ligand: 84%
Wee1-like protein kinase (WEE1, Homo sapiens, UniProt P30291); cell-free assay, competition with immobilised ligand: 85%
Serine/threonine-protein kinase STK11 (STK11, Homo sapiens, UniProt Q15831); cell-free assay, competition with immobilised ligand: 75%
SRSF protein kinase 1 (SRPK1, Homo sapiens, UniProt Q96SB4); cell-free assay, competition with immobilised ligand: 100%
Casein kinase I isoform alpha-like (CSNK1A1L, Homo sapiens, UniProt Q8N752); cell-free assay, competition with immobilised ligand: 82%
Cyclin-dependent kinase 19 (CDK19, Homo sapiens, UniProt Q9BWU1); competition binding: 75%

Block 2
SMILES: FC(F)(F)c1ccc(/C=C/c2nc(COc3ccc(CCCCn4ccnn4)cc3)co2)cc1
Effect on: enzyme activity
Action: inhibitor
Concentration: 0.5 µM
Relative to: control
Measurement: remaining activity
Testis-specific serine/threonine-protein kinase 2 (TSSK2, Homo sapiens, UniProt Q96PF2): 100%
Mitogen-activated protein kinase kinase kinase kinase 4 (MAP4K4, Homo sapiens, UniProt O95819): 95.1%
Homeodomain-interacting protein kinase 2 (HIPK2, Homo sapiens, UniProt Q9H2X6): 90.2%
Tyrosine-protein kinase Srms (SRMS, Homo sapiens, UniProt Q9H3Y6): 93.5%
Phosphorylase b kinase gamma catalytic chain, skeletal muscle/heart isoform (PHKG1, Homo sapiens, UniProt Q16816): 92.9%
cAMP-dependent protein kinase catalytic subunit gamma (PRKACG, Homo sapiens, UniProt P22612): 105%
Ephrin type-B receptor 4 (EPHB4, Homo sapiens, UniProt P54760): 92.2%
Ephrin type-B receptor 1 (EPHB1, Homo sapiens, UniProt P54762): 99.4%
Ribosomal protein S6 kinase alpha-6 (RPS6KA6, Homo sapiens, UniProt Q9UK32): 100%
Cyclin-dependent kinase 6, with cyclin D3 (CDK6, Homo sapiens, UniProt Q00534): 90%
Cyclin-dependent kinase 1, with cyclin B (CDK1, Homo sapiens, UniProt P06493): 93.8%
Dual specificity tyrosine-phosphorylation-regulated kinase 3 (DYRK3, Homo sapiens, UniProt O43781): 109%

Block 3
Species: mouse
Medium: microsomes or S9
Concentration: 2 µM
Time: 0.5 h
Measurement: remaining compound
CCCc1nc(N2CCN(CC(=O)N3CCCC3)CC2)c(C#N)c2c1CCC2: 0.138%
Cc1ccc(Nc2c(-c3cc(Br)ccc3O)nc3ncccn23)c(C)c1: 8.25%
O=C(Nc1nccs1)c1cc2ccc3cccnc3c2[nH]1: 0.631%
Cc1cc(C)n(-c2nc3cc(Cl)ccc3nc2N2CCN(c3ccccn3)CC2)n1: 5%
O=C(Cc1cccs1)NC1(C(=O)NC2CCCCC2)CCCCC1: 0.227%
O=C(NC1(c2ccccc2F)CCCC1)c1cccc(N2CCCC2=O)c1: 15.6%

Mixed results
O=C1CCC(N2Cc3cc(C4CCN(Cc5ccccc5)CC4)ccc3C2=O)C(=O)N1 (stereo not shown)
CL (ICR mouse, male, plasma; intravenous, 1.0 mg/kg): 54.2 mL/min/kg
